Measurements of several laboratories.
Numbered parts are unrelated; each lists some results of a single study. Changes are numbered by the printed parent chain.
UniProt P53667, sequence (whole entry, looked up): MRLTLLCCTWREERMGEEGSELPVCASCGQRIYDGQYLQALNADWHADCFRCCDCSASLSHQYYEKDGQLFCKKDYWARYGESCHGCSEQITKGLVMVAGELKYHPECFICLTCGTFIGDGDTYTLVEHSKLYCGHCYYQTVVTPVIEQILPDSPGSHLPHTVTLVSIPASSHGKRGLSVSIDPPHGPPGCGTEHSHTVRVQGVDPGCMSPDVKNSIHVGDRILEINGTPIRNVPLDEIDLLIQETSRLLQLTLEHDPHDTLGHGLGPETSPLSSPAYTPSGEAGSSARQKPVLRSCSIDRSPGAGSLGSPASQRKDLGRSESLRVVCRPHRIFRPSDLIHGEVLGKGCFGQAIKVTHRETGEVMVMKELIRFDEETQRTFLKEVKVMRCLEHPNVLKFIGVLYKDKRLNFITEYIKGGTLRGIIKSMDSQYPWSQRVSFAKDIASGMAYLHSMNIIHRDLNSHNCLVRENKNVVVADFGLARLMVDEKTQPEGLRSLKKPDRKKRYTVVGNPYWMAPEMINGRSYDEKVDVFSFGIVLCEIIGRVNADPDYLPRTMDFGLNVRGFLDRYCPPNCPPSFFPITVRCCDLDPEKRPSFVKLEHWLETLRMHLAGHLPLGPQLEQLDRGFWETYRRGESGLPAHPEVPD

Set 1
Target: UDP-N-acetylglucosamine--peptide N-acetylglucosaminyltransferase 110 kDa subunit (OGT, Homo sapiens, UniProt O15294)
Effect on: binding
Technique: phage display NGS
Form: peptide
Concentration: concentration not given
Setting: panning round 2
Baseline: input library
Residues (O15294 1-1046): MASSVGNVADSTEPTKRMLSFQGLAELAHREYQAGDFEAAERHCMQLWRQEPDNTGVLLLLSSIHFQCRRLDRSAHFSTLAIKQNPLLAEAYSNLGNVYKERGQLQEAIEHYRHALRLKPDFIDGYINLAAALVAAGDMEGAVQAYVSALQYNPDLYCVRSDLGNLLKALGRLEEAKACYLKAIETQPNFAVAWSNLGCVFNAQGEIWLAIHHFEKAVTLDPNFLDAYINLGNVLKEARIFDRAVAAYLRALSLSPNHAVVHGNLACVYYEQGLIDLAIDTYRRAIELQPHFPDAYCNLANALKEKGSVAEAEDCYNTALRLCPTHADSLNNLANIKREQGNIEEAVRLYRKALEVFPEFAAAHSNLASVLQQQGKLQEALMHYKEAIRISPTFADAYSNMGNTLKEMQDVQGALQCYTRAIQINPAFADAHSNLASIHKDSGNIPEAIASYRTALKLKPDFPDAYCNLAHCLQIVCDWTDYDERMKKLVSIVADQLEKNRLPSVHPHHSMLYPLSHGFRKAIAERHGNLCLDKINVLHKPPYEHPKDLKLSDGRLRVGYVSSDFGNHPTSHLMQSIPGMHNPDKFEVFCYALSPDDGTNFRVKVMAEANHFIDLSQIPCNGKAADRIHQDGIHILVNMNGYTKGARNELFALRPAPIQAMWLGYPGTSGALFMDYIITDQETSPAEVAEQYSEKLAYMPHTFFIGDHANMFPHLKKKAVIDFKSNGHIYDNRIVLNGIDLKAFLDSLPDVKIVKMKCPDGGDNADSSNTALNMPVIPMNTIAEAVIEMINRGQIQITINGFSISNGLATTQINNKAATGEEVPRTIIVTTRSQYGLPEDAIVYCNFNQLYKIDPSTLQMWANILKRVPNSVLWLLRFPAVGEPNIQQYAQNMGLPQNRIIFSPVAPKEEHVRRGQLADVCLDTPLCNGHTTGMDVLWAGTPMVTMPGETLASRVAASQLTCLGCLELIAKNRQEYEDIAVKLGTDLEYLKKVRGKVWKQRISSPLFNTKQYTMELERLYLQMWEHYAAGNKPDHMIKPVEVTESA
For `VWPPQNHVHSEMMRH`, “enrichment fold change” read 4.46.
Under “enrichment fold change”, `FNFTPYYQIAPGIRS` is recorded as 7.35.
`GFMPVYEIYFTRSDE` — result for “enrichment fold change”: 9.06.
`WPMKHLHDRWSSHPF`: “enrichment fold change” 4.91.
`DQGMTKDTHHIHTHH`: “enrichment fold change” 7.14.
For `GPMQMFQPYYQIDYA`, “enrichment fold change” read 9.05.
`QPTTSFPPKYLITYT`: “enrichment fold change” 28.1.
For `YNIYNPAYQIAYKF`, “enrichment fold change” read 7.72.

Set 2
Target: CCNB1, cyclin fold, Cln2 fusion (human)
Technique: yeast growth competition, sequencing
Sample: yeast
Setting: strong parent motif
Baseline: not given
Direction: higher = stronger binding
Starting sequence: viral docking peptide; TSVRRALFTGGSD
`TSVRRALFTGGAD [S12A]`: “normalised enrichment score” 2.08.
`TSVRRELFTGGSD [A6E]`: “normalised enrichment score” 1.84.
`TSVRRALFTEGSD [G10E]`: “normalised enrichment score” 4.16.
`TSVRRAFFTGGSD [L7F]` — result for “normalised enrichment score”: -0.0914.
`TSVRRALFTRGSD [G10R]` — result for “normalised enrichment score”: 0.921.
Under “normalised enrichment score”, `TSVRCALFTGGSD [R5C]` is recorded as 0.799.
`TSVRRALFTHGSD [G10H]` — result for “normalised enrichment score”: 1.44.
Under “normalised enrichment score”, `TSVRRALFTGGVD [S12V]` is recorded as 2.2.

Set 3
Target: tungstate, free oxyanion
Technique: microfluidic competitive inhibition
Sample: in vitro, cell-free expressed
Concentration: not given
Setting: derived from inhibition constants, unchanged parent 2230 nM
Direction: lower = stronger binding
Starting sequence: PafA, mature enzyme, eGFP fusion (Elizabethkingia meningoseptica, UniProt Q9KJX5); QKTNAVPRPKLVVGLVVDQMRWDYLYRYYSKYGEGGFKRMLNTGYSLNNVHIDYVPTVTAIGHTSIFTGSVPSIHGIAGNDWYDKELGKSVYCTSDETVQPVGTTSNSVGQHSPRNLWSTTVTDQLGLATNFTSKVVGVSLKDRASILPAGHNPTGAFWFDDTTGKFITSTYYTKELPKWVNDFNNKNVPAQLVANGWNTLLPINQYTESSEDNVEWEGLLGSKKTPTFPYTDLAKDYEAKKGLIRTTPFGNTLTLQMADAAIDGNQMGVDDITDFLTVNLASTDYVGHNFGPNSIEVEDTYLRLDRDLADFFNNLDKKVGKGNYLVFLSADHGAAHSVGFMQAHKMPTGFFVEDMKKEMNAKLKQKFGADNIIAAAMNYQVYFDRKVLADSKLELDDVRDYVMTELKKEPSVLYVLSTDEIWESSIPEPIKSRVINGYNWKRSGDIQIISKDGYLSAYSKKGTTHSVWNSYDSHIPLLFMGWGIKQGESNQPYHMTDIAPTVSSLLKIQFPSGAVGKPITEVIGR
`F67G`: “oxyanion analog dissociation constant” 1.68 µM.
`R386G`: “oxyanion analog dissociation constant” 2.48 µM.
For `P293V`, “oxyanion analog dissociation constant” read 2.58 µM.
`P101G` — result for “oxyanion analog dissociation constant”: 1.79 µM.
`T171G`: “oxyanion analog dissociation constant” 1.88 µM.
Under “oxyanion analog dissociation constant”, `T502V` is recorded as 1.14 µM.
`S505V`: “oxyanion analog dissociation constant” 2.53 µM.
`V339A` — result for “oxyanion analog dissociation constant”: 2.12 µM.

Further values, each from its own experiment
`N/C(=N\[N+](=O)[O-])N/N=C\c1ccc(-c2cccc([N+](=O)[O-])c2)o1` has a remaining activity of 99.7% (LIM domain kinase 1 (LIMK1, Homo sapiens, UniProt P53667); enzyme activity, inhibitor; 0.5 µM; baseline: control).

Some of these lines once more (set 2):
`TSVRRELFTGGSD [A6E]`: “normalised enrichment score” 1.84.
`TSVRRALFTEGSD [G10E]`: “normalised enrichment score” 4.16.
Under “normalised enrichment score”, `TSVRRALFTGGVD [S12V]` is recorded as 2.2.
